Measurements of several laboratories.
Numbered parts are unrelated; each lists some results of a single study. Several values in a cell are separate wells, animals, samples, runs or records.

Sample 1 — observed: enzyme activity; action: inhibitor; concentration: 0.5 µM; reference: control
Target: Serine/threonine-protein kinase PAK 5 (PAK5, Homo sapiens, UniProt Q9P286)
Sequence of UniProt Q9P286 (whole entry, looked up): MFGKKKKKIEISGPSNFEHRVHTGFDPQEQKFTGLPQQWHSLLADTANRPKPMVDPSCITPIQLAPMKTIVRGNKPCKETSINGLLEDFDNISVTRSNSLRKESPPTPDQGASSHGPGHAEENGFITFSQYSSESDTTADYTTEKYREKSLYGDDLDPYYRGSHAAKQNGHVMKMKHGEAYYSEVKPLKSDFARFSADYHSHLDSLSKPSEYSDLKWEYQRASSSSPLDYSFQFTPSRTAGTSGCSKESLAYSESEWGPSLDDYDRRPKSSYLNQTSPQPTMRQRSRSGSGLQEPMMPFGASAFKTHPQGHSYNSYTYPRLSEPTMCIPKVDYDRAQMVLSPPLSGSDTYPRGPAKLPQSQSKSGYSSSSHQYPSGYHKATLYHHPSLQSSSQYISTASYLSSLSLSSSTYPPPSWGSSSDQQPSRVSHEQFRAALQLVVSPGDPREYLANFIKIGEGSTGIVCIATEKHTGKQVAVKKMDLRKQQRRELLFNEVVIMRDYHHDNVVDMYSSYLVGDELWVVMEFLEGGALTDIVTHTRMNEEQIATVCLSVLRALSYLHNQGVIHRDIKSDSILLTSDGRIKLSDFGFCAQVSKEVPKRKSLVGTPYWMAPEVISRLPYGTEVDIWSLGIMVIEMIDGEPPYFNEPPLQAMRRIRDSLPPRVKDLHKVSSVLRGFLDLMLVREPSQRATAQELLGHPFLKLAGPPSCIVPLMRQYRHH
Compound	remaining activity
CC(C)n1cnc2c(Nc3cccc(Cl)c3)nc(NCCO)nc21	80.4%
O=Nc1c(-c2c(O)[nH]c3ccccc23)[nH]c2ccccc12	89.3%
CC(C)(C)c1nc2c3cc[nH]c(=O)c3c3cc(F)ccc3c2[nH]1	90.5%
N#C/C(=C(/N)SC1C=CC=CC1)c1cccc(C(O)c2ccncc2)c1 (stereo not drawn)	100%
CCCCc1c(-c2ccc(O)cc2)[nH]c2nccnc12	82.9%
Clc1ccc(Nc2nnc(Cc3ccncc3)c3ccccc23)cc1	97.1%
CCN(CC)CCCCN1c2ccccc2Oc2ccc(Cl)cc21	116%
O=C(c1ccccc1)c1ccc(N2CCOCC2)cc1O	99.2%
c1cc(-c2cnn3cc(-c4ccc(OCCN5CCCCC5)cc4)cnc23)ccn1	93.2%
COc1cc2c(Nc3ccc(Br)cc3F)ncnc2cc1OCC1CCN(C)CC1	93.5%
NC(=O)c1ccc(-c2nc(-c3ccc4c(c3)OCCO4)c(-c3ccccn3)[nH]2)cc1	98.8%
FC(F)(F)c1ccc(/C=C/c2nc(COc3ccc(CCCCn4ccnn4)cc3)co2)cc1	89.4%
COc1cc2c(N3CCN(C(=O)Nc4ccc(OC(C)C)cc4)CC3)ncnc2cc1OCCCN1CCCCC1	87.5%
O=c1c(-c2ccc(F)cc2)c(-c2ccncc2)[nH]n1-c1ccc(Cl)cc1	86.3%
CNc1cc2c(Nc3cccc(Br)c3)ncnc2cn1	90.8%
O=C1c2ccccc2-c2nc3nnnn3nc21	93.4%
CC(C)N(CCC(=O)c1ccc2ccccc2c1)Cc1ccccc1	98.5%
N#CC(c1ccnc(NCCc2cccnc2)n1)c1nc2ccccc2s1 (stereo not drawn)	98.9%
O=C1NC(=O)/C(=C/c2ccc3c(c2)OC(F)(F)O3)S1	93%
NC(=O)c1cccc(-c2cc(Nc3ccc(OC(F)(F)F)cc3)ncn2)c1	88.1%
O=C(O)/C=C/c1cc(Br)c(Br)c(Br)c1Br	90.6%
Nc1nc(Nc2ccc(S(N)(=O)=O)cc2)nn1C(=S)Nc1c(F)cccc1F	43.8%
C[C@@H](N)[C@H]1CC[C@H](C(=O)Nc2ccncc2)CC1	85.7%

Sample 2 — organism: Sarcocystis neurona; observed: parasite growth; concentration: 10 µM; time: 96 h; reference: untreated
Structure (SMILES)	log2 fold change
COc1cc(/C=C/c2ccc(O)cc2)cc(OC)c1	0.82
CN(CCCN1c2ccccc2CCc2ccccc21)CC(=O)c1ccc(Cl)cc1	-0.0644
CC(=O)[C@]1(O)Cc2c(O)c3c(c(O)c2[C@@H](O[C@H]2C[C@H](N)[C@H](O)[C@H](C)O2)C1)C(=O)c1ccccc1C3=O	-5.82
OC(c1cc(C(F)(F)F)nc2c(C(F)(F)F)cccc12)C1CCCCN1 (stereo not drawn)	-0.23
C[C@@H]1C[C@H]2[C@@H]3C[C@H](F)C4=CC(=O)C(Cl)=C[C@]4(C)[C@@]3(F)[C@@H](O)C[C@]2(C)[C@@]1(O)C(=O)CO	-0.13
COc1ccc2cc(CCC(C)=O)ccc2c1	2.2
CCOC(=O)C1=C(C)NC(C)=C(C(=O)OCC)C1c1ccccc1/C=C/C(=O)OC(C)(C)C	-0.66
[H]/N=C(/NCCCCC)N/N=C/c1c[nH]c2ccc(OC)cc12	-6.13
O=C1CCc2ccc(OCCCCN3CCN(c4cccc(Cl)c4Cl)CC3)cc2N1	-0.18
CCCC(CCC)C(=O)O	0.26
CCCCCCCCCCC[C@@H](C[C@@H]1OC(=O)[C@H]1CCCCCC)OC(=O)[C@H](CC(C)C)NC=O	-0.42
C/C(=C\C(=O)OCCCCCCCCC(=O)O)C[C@@H]1OC[C@H](C[C@@H]2O[C@H]2[C@@H](C)[C@H](C)O)[C@@H](O)[C@H]1O	-0.11
COc1cccc2c1C(=O)c1c(O)c3c(c(O)c1C2=O)C[C@@](O)(C(=O)CO)C[C@@H]3O[C@H]1C[C@H](N)[C@@H](O)[C@H](C)O1	-2.5

Sample 3 — cell line: mouse MPNST tumor cells; method: high-content immunofluorescence imaging; refers to: nuclear SOX9; concentration: 10 µM; time: 12 h; notes: mean of 2 replicates; reference: DMSO control; reading: higher = more nuclear SOX9
Structure (SMILES)	nuclear SOX9 intensity
CCC[C@@H]1C[C@@H](C(=O)N[C@@H]([C@H]2O[C@H](SC)[C@H](O)[C@@H](O)[C@H]2O)[C@@H](C)O)N(C)C1	101 % of DMSO
CCC(CC)O[C@@H]1C=C(C(=O)O)C[C@H](N)[C@H]1NC(C)=O	104 % of DMSO
C[C@]12C=CC(=O)N[C@@H]1CC[C@@H]1[C@@H]2CC[C@]2(C)[C@@H](C(=O)Nc3cc(C(F)(F)F)ccc3C(F)(F)F)CC[C@@H]12	94.1 % of DMSO
CCn1c(=O)n(C2=C(CO)CN(CC3CCCCCCC3)CC2)c2ccccc21	142 % of DMSO
O=C(c1cn(Cc2cncn2Cc2ccc(Br)cc2)cc1-c1cccc2ccccc12)N1CCOCC1	60.8 % of DMSO
NC(=O)c1ccc(-c2nc(-c3ccc4c(c3)OCCO4)c(-c3ccccn3)[nH]2)cc1	86.2 % of DMSO
O=C(N/N=C/c1ccc([N+](=O)[O-])o1)c1ccc(O)cc1	99.5 % of DMSO
Clc1ccc(-c2nc3sccn3c2C=NOCc2ccc(Cl)c(Cl)c2)cc1	110 % of DMSO
c1ccc(CNc2ncnc3nc[nH]c23)cc1	118 % of DMSO
Cc1ccc2c(c1)c1c(n2CCc2ccc(C)nc2)CCN(C)C1	120 % of DMSO
CC[C@@]1(O)C(=O)OCc2c1cc1n(c2=O)Cc2cc3c(CN(C)C)c(O)ccc3nc2-1	193 % of DMSO
Nc1nc2n[nH]nc2c(=O)[nH]1	124 % of DMSO
O=C(Nc1ncc([N+](=O)[O-])s1)c1ccccc1O	97.8 % of DMSO
Cn1c(=O)c2cc(C(=O)NCCCN3CCCCCC3)sc2c2ccccc21	197 % of DMSO
N[C@@H]1CONC1=O	105 % of DMSO and 128 % of DMSO

Sample 4 — concentration: 1 µM; reference: DMSO
SMILES: COc1ccc2c(c1)O[C@H](c1ccc(OC)c(OC)c1)C[C@@H]2NC(=O)C1(c2ccc3c(c2)OC(F)(F)O3)CC1 (single isomer, unassigned)
cell line	assay	viability
normal adjacent epithelium organoid sample F	CellTiter-Glo	114%
normal-adjacent epithelium patient-derived organoids sample E	CellTiter-Glo	110% and 102%
colorectal tumour organoids	–	110%
normal adjacent epithelium organoid sample G	CellTiter-Glo	99.2%
normal-adjacent epithelium patient-derived organoids sample F	CellTiter-Glo	80.9% and 148%
normal-adjacent epithelium patient-derived organoids sample H	CellTiter-Glo	134% and 160%
normal-adjacent epithelium patient-derived organoids sample G	CellTiter-Glo	102% and 96.4%
normal adjacent epithelium organoid sample H	CellTiter-Glo	147%
normal adjacent epithelium organoid sample E	CellTiter-Glo	106%
sample C colorectal tumour organoid	–	107% and 138%
sample I colorectal tumour organoid	–	110% and 113%
normal adjacent epithelium organoid sample D	CellTiter-Glo	113%
